Experimental data pooled from the literature.
Lines come from different studies, so protocols differ. Values joined by “and” are separate records of one study, mostly repeats; a detail may differ. Numbers after ± are the reported error.
LGALS1: Galectin-1 (LGALS1, Homo sapiens, UniProt P09382)
Proline--tRNA ligase: Proline--tRNA ligase (Plasmodium falciparum, UniProt Q8I5R7)
BPTF bromodomain: Nucleosome-remodeling factor subunit BPTF, bromodomain (BPTF, Homo sapiens, UniProt Q12830)

| Compound | target | assay | test system | conditions | Kd |
| --- | --- | --- | --- | --- | --- |
| CCc1cc2c3c(c1CC)O[C@H](CO)[C@H](O)[C@@H]3OC2 | LGALS1 | ligand displacement, FP |  |  | 2900 µM |
| Cc1ccc(CCN2COc3c(cc(F)c4cccnc34)C2)cc1 | rplL (Escherichia coli, UniProt P0A7K2) | binding, SPR |  |  | 16 µM |
| Cc1cc(N2CC[C@](C#N)(C3(C)CC3)C2=O)cc(C(=O)NCc2cc(F)cc(-c3cnn(C)c3)c2)n1 | Proline--tRNA ligase | binding, MST |  |  | 0.393 µM |
| CC(=O)N[C@H]1[C@H](OCCCN)O[C@H](COS(=O)(=O)O)[C@@H](O[C@@H]2O[C@H](CO)[C@H](O)[C@H](O[C@]3(C(=O)O)C[C@H](O)[C@@H](NC(C)=O)[C@H]([C@H](O)[C@H](O)CO)O3)[C@H]2O)[C@@H]1O[C@@H]1O[C@@H](C)[C@@H](O)[C@@H](O)[C@@H]1O | Sialic acid-binding Ig-like lectin 9, V-set domain (SIGLEC9, Homo sapiens, UniProt Q9Y336, C36S) |  | Siglec-9 domain 1 | pH 7.4, 293 K | 145 ± 10 µM |
| OC[C@H]1Oc2c(I)c(I)cc3c2[C@@H](OC3)[C@H]1O | Galectin-9 (LGALS9, Homo sapiens, UniProt O00182) | cell-free assay, FP |  |  | > 1000 µM |
| CC(=O)N[C@@H]1[C@@H](O[C@@H]2O[C@H](C(=O)O)[C@@H](O[C@@H]3O[C@H](COS(=O)(=O)O)[C@@H](OS(=O)(=O)O)[C@H](O[C@@H]4O[C@H](C(=O)O)[C@@H](O[C@@H]5O[C@H](COS(=O)(=O)O)[C@@H](OS(=O)(=O)O)[C@H](O[C@@H]6O[C@H](C(=O)O)[C@@H](OS(=O)(=O)O)[C@H](OS(=O)(=O)O)[C@H]6OS(=O)(=O)O)[C@H]5NC(C)=O)[C@H](OS(=O)(=O)O)[C@H]4OS(=O)(=O)O)[C@H]3NC(C)=O)[C@H](OS(=O)(=O)O)[C@H]2OS(=O)(=O)O)[C@H](OS(=O)(=O)O)[C@@H](COS(=O)(=O)O)O[C@H]1N=[N+]=[N-] | Transforming growth factor beta-1 proprotein, mature (TGFB1, Homo sapiens, UniProt P01137) | fluorescence polarization competition |  |  | 1.01 ± 0.64 µM |
| O=C(Nc1cccc(-c2csc(Nc3ccc(C(=O)O)c(O)c3)n2)c1)c1ccccc1 | Cystathionine gamma-synthase 1, chloroplastic (CGS1, Arabidopsis thaliana, UniProt P55217) | binding, microscale thermophoresis |  |  | 1.78 µM |
| OC[C@H]1Oc2cc(Cc3ccccc3)cc3c2[C@@H](OC3)[C@H]1O | LGALS1 | ligand displacement, FP |  |  | 140 µM |
| CC(=O)NCCCC[C@H](NC(=O)[C@H](CCCCN)NC(=O)[C@H](Cc1c[nH]cn1)NC(=O)[C@H](CCCNC(=N)N)NC(C)=O)C(=O)Nc1ccc2c(C)cc(=O)oc2c1 | SIRT1 (Homo sapiens, UniProt Q96EB6, C253S/C268S/C501S/C502S/del513-640) | peptide binding, isothermal titration calorimetry |  | pH 7.5, 25 °C, together with: resveratrol 0.5 mM | 7.3 µM |
| CC[C@H](C)[C@H](NC(=O)[C@H](CC(=O)O)NC(=O)[C@H](CC(=O)O)NC(=O)[C@@H]1CCCN1C(=O)[C@H](C)NC(=O)[C@H](CC(C)C)NC(=O)[C@H](CCSC)NC(=O)[C@H](CC(C)C)NC(=O)[C@H](CC(=O)O)NC(=O)[C@H](CC(=O)O)NC(=O)[C@H](CCSC)NC(=O)[C@H](C)NC(=O)[C@H](CCC(N)=O)NC(=O)[C@H](C)NC(=O)[C@@H]1CCCN1C(=O)[C@H](CC(C)C)NC(=O)[C@@H]1CCCN1C(=O)[C@H](C)NC(=O)[C@H](CC(C)C)NC(=O)[C@@H](NC(=O)[C@H](CC(N)=O)NC(=O)[C@H](CC(N)=O)NC(=O)[C@H](CCC(=O)O)NC(=O)[C@@H]1CCCN1C(=O)[C@H](CC(C)C)NC(=O)[C@H](CC(C)C)NC(=O)[C@H](CCCCN)NC(=O)[C@H](Cc1c[nH]c2ccccc12)NC(=O)[C@H](CC(C)C)NC(=O)[C@H](CC(=O)O)NC(=O)[C@H](C)NC(=O)[C@H](Cc1ccccc1)NC(=O)[C@H](C)NC(=O)[C@H](CCC(=O)O)NC(=O)[C@H](CCC(N)=O)NC(=O)[C@H](C)NC(=O)[C@H](CC(C)C)NC(=O)[C@@H]1CCCN1C(=O)[C@@H]1CCCN1C(=O)[C@H](CCC(=O)O)NC(=O)[C@@H](NC(=O)[C@H](CO)NC(=O)[C@@H]1CCCN1C(=O)[C@H](CC(=O)O)NC(=O)[C@H](CO)NC(=O)[C@H](CCC(N)=O)NC(=O)[C@@H]1CCCN1C(=O)[C@H](CCC(=O)O)NC(=O)[C@H](CCC(=O)O)NC(=O)[C@@H](N)CCSC)C(C)C)C(C)C)C(=O)N[C@@H](CCC(=O)O)C(=O)N[C@@H](CCC(N)=O)C(=O)N[C@@H](Cc1c[nH]c2ccccc12)C(=O)N[C@@H](Cc1ccccc1)C(=O)N[C@@H](C)C(=O)N[C@@H](CCC(=O)O)C(=O)N[C@@H](CC(=O)O)C(=O)O | Histone acetyltransferase p300, TAZ1 domain (EP300, Homo sapiens, UniProt Q09472) | fluorescence anisotropy |  | TAZ1 domain, together with: labelled p53 TAD peptide | 0.56 ± 0.045 µM |
| COc1cc(CC(=O)O)ccc1O | p-hydroxyphenylacetate 3-hydroxylase, reductase component (C1-hpah, Acinetobacter baumannii, UniProt Q6Q271) | ITC |  | pH 7, together with: 1 mM FMN | 39.5 ± 5.75 µM |
| CC(=O)NCCCC[C@H](NC(=O)CNC(=O)[C@H](C)NC(=O)[C@H](CCCCN)NC(=O)CNC(=O)CNC(=O)[C@H](C)NC(=O)[C@@H](N)Cc1ccc(O)cc1)C(=O)N[C@@H](CC(=O)O)C(=O)N[C@@H](CO)C(=O)NCC(=O)N[C@@H](CCCCN)C(=O)N[C@@H](C)C(=O)N[C@@H](CCCCNC(C)=O)C(=O)N[C@@H](C)C(=O)N[C@@H](CCCCNC(C)=O)C(=O)N[C@@H](C)C(=O)N[C@H](C(=O)N[C@@H](CO)C(=O)N[C@@H](CCCNC(=N)N)C(N)=O)C(C)C | BPTF bromodomain | bromodomain binding, PrOF NMR titration |  | pH 7.4, 5-fluorotryptophan-labelled bromodomain, 40-50 µM | 960 µM |
| O=C(Cc1cccc(C(F)(F)F)c1)Nc1cc(Oc2cc3sc(NC(=O)C4CC4)nc3cc2Cl)ccc1F | RIPK3 (Homo sapiens, UniProt Q9Y572) | binding, competition with immobilised ligand |  |  | > 5 µM |
| Cc1cc(N2CC[C@@](C#N)(C3CC3)C2=O)cc(NC(=O)Cc2ccccc2)n1 | Proline--tRNA ligase | binding, MST |  |  | ~0.278 µM and 0.278 µM |
| CC[C@H](C)[C@H](NC(=O)[C@H](CCCCN)NC(=O)[C@H](CCCCN)NC(=O)[C@@H](NC(=O)[C@H](CCC(=O)O)NC(=O)[C@H](CCC(=O)O)NC(=O)[C@H](CCC(=O)O)NC(=O)[C@H](CO)NC(=O)[C@H](CC(C)C)NC(=O)[C@H](CC(=O)O)NC(=O)[C@H](CC(C)C)NC(=O)CNC(=O)[C@H](C)NC(=O)[C@H](CC(C)C)NC(=O)[C@H](CO)NC(=O)CNC(=O)CNC(=O)CNC(=O)CCCC[C@@H]1SC[C@@H]2NC(=O)N[C@@H]21)C(C)C)C(=O)N[C@@H](CC(C)C)C(=O)N[C@@H](CC(=O)O)C(=O)N[C@@H](CCC(=O)O)C(=O)N[C@H](C(=O)N[C@H](C(=O)N[C@@H](CCCCN)C(=O)N[C@@H](CC(=O)O)C(=O)O)C(C)C)[C@@H](C)CC | Fab B11 antibody (human) | binding, biolayer interferometry |  | together with: biotinylated peptide on tips | 0.031 ± 0.001 µM |
| CCN(CC)C1CCN(Cc2cc(C#CCN)cc(I)c2O)CC1 | TP53 (Homo sapiens, UniProt P04637, M133L/N239Y/N268D/V203A/Y220C) |  |  |  | ~1100 µM |
| CC(=O)NCCCC[C@H](NC(=O)CNC(=O)CNC(=O)[C@H](C)NC(=O)[C@@H](N)Cc1ccc(O)cc1)C(=O)N[C@@H](C)C(=O)NCC(=O)N[C@@H](CCCCN)C(=O)N[C@@H](CC(=O)O)C(=O)N[C@@H](CO)C(=O)NCC(=O)N[C@@H](CCCCNC(C)=O)C(=O)N[C@@H](C)C(=O)N[C@@H](CCCCN)C(=O)N[C@@H](C)C(=O)N[C@@H](CCCCN)C(=O)N[C@@H](C)C(=O)N[C@H](C(=O)N[C@@H](CO)C(=O)N[C@@H](CCCNC(=N)N)C(N)=O)C(C)C | BPTF bromodomain | bromodomain binding, PrOF NMR titration |  | pH 7.4, 5-fluorotryptophan-labelled bromodomain, 40-50 µM | 760 µM |
| COc1cc(-c2nc3ccc(C(=O)NCCCN4CCN(c5cccc(C)c5C)CC4)cc3n2C2CCC2)cc(OC)c1OC | BMPR1B (Homo sapiens, UniProt O00238) | cell-free assay, TR-FRET |  |  | 0.301 µM |
| C#CCN(CC(=O)N(CCOC)CC(=O)N(CCOC)CC(N)=O)C(=O)CN(CCOC)C(=O)CN(CCC(C)C)C(=O)CN(Cc1ccc(S(N)(=O)=O)cc1)C(=O)CN(CCCCN)C(=O)[C@H](CC(C)C)NCc1ccccc1 | MMP14 (Homo sapiens, UniProt P50281) | binding, FP |  |  | 1.3 µM |

Excerpt of the above:
| Compound | target | assay | test system | conditions | Kd |
| --- | --- | --- | --- | --- | --- |
| CC[C@H](C)[C@H](NC(=O)[C@H](CCCCN)NC(=O)[C@H](CCCCN)NC(=O)[C@@H](NC(=O)[C@H](CCC(=O)O)NC(=O)[C@H](CCC(=O)O)NC(=O)[C@H](CCC(=O)O)NC(=O)[C@H](CO)NC(=O)[C@H](CC(C)C)NC(=O)[C@H](CC(=O)O)NC(=O)[C@H](CC(C)C)NC(=O)CNC(=O)[C@H](C)NC(=O)[C@H](CC(C)C)NC(=O)[C@H](CO)NC(=O)CNC(=O)CNC(=O)CNC(=O)CCCC[C@@H]1SC[C@@H]2NC(=O)N[C@@H]21)C(C)C)C(=O)N[C@@H](CC(C)C)C(=O)N[C@@H](CC(=O)O)C(=O)N[C@@H](CCC(=O)O)C(=O)N[C@H](C(=O)N[C@H](C(=O)N[C@@H](CCCCN)C(=O)N[C@@H](CC(=O)O)C(=O)O)C(C)C)[C@@H](C)CC | Fab B11 antibody (human) | binding, biolayer interferometry |  | together with: biotinylated peptide on tips | 0.031 ± 0.001 µM |
| CCN(CC)C1CCN(Cc2cc(C#CCN)cc(I)c2O)CC1 | TP53 (Homo sapiens, UniProt P04637, M133L/N239Y/N268D/V203A/Y220C) |  |  |  | ~1100 µM |
